# Experimental data pooled from the literature.
# Every numbered part comes from another study and shows a few of its results, in no order. Several values in a cell are separate wells, animals, samples, runs or records.
# UniProt P22607, sequence (whole entry, looked up): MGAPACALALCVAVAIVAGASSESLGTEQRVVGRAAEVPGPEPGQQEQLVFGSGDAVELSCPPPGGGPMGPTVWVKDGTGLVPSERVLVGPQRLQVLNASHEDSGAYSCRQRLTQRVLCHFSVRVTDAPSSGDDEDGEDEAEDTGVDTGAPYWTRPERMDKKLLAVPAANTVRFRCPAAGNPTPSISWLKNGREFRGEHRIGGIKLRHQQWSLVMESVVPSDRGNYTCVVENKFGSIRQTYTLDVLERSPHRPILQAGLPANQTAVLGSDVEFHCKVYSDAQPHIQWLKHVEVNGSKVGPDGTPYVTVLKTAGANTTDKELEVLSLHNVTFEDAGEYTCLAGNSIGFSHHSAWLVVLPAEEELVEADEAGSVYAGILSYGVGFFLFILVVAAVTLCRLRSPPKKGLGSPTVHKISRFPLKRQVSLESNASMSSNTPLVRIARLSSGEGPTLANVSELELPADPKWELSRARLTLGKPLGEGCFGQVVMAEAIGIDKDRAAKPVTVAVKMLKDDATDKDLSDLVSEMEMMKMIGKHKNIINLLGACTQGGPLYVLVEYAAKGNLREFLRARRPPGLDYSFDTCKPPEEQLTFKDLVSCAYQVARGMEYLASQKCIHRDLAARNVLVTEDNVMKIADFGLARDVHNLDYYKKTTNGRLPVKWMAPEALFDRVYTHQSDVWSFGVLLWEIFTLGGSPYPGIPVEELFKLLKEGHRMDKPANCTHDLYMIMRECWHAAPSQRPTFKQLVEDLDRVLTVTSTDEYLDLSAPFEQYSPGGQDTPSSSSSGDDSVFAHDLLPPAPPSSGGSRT

# Series 1
# SMILES: NC/C(=C\F)COc1cc(Cn2c(=S)[nH]c(=O)c3[nH]cnc32)cc(C(F)(F)F)c1
# MPO: Myeloperoxidase (MPO, Homo sapiens, UniProt P05164)
# UniProt P05164, sequence (whole entry, looked up): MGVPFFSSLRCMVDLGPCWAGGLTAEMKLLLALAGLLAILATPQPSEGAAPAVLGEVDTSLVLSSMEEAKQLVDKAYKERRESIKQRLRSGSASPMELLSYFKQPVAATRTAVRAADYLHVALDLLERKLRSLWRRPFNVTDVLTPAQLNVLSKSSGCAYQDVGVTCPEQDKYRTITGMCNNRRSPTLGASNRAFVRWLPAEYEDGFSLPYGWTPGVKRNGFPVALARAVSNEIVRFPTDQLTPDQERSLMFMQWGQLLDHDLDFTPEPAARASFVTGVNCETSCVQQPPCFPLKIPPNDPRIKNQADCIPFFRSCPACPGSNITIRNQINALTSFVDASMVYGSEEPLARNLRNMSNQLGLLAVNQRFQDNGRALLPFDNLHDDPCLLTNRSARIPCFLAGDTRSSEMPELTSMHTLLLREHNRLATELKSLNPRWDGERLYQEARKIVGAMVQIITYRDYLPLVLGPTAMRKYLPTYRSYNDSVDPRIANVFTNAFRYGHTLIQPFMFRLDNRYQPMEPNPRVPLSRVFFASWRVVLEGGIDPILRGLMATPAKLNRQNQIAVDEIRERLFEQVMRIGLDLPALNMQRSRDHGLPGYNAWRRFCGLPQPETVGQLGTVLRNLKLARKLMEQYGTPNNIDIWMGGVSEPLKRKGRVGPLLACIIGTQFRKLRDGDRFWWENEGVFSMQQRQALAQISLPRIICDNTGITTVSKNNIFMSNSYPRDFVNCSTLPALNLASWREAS
# AOC3: Amine oxidase [copper-containing] 3 (AOC3, Homo sapiens, UniProt Q16853)
# UniProt Q16853, sequence (whole entry, looked up): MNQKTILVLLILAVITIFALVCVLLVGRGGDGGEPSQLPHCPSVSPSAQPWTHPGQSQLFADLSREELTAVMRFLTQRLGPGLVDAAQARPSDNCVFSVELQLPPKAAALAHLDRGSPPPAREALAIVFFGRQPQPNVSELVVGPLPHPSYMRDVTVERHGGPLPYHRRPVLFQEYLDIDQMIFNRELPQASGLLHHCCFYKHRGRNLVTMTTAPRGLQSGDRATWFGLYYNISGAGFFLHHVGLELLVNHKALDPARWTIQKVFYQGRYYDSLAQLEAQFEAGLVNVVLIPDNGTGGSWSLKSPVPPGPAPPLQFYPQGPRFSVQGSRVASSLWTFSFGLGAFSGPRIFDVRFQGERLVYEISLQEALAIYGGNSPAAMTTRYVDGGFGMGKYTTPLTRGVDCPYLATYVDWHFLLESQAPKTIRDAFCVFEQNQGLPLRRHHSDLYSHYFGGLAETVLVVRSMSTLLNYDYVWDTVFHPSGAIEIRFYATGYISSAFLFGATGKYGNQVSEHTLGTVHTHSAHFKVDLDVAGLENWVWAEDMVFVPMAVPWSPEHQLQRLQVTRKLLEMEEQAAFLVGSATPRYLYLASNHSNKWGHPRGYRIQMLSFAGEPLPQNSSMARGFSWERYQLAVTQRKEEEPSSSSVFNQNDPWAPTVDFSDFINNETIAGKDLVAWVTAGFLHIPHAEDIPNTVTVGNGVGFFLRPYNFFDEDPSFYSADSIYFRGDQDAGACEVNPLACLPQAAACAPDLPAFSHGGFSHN
target,effect on,action,method,concentration,inhibition
MPO,,,Amplex Red,0.0206 µM,73.9%
MPO,enzyme activity,inhibitor,fluorescence,30 µM,101%
AOC3,enzyme activity,inhibitor,fluorescence,1.111 µM,30.2% and 38.5% and 38.6% and 26.6%
MPO,enzyme activity,inhibitor,fluorescence,41.2 nM,74.2%
AOC3,enzyme activity,inhibitor,fluorescence,0.1235 µM,4.6% and -0.386% and 1.57% and 2.49%
MPO,enzyme activity,inhibitor,fluorescence,0.3704 µM,99.9%
AOC3,enzyme activity,inhibitor,fluorescence,30 µM,95.1% and 96.4% and 97.7% and 97.5%
AOC3,enzyme activity,inhibitor,fluorescence,0.3704 µM,12.4% and 9.08% and 18.8% and 13.3%

# Series 2
# Structure (SMILES): Cc1ccc(O)c(C)c1-c1cnc2[nH]c(-c3cnc(N4CCC5(CC4)CC(N4CCN(c6ccc(N[C@H]7CCC(=O)NC7=O)cc6F)CC4)CO5)nc3)cc2c1C#N (single isomer, unassigned)
# Target: Membrane-associated tyrosine- and threonine-specific cdc2-inhibitory kinase (PKMYT1, Homo sapiens, UniProt Q99640)
# Action: degrader
# Method: automated immunoblot (Jess)
# Time: 24 h
# Target sequence (Q99640 1-499): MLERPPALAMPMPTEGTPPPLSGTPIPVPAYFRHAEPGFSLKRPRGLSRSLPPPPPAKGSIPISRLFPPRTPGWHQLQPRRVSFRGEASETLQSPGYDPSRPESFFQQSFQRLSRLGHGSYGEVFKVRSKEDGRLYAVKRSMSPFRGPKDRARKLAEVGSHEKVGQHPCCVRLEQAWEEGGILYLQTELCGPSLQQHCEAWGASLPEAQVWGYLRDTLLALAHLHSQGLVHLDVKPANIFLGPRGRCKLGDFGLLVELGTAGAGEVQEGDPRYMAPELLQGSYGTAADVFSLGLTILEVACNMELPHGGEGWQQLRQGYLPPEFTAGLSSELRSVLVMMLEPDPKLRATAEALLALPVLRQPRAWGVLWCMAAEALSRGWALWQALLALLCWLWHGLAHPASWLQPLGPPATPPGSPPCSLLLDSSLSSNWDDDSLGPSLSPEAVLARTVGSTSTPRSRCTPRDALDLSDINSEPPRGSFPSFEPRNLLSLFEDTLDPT
cell line,concentration,degradation
HCC1569,0.05 nM,5.66%
,1.37 nM,68.8% and 65.7%
HCC1569,333.33 nM,89.4%
HCC1569,4.12 nM,81.4%

# Series 3
# Structure (SMILES): CC[C@@]1(c2ccccc2)C2=C(CC(C)(C)CC2=O)Nc2n[nH]cc21
# Concentration: 1 µM
target,effect on,method,reference,remaining binding [%]
"Fibroblast growth factor receptor 4 (FGFR4, Homo sapiens, UniProt P22455)",binding,competition with immobilised ligand,,99
"Dual specificity protein kinase CLK4 (CLK4, Homo sapiens, UniProt Q9HAZ1)",binding,competition with immobilised ligand,,96
"Phosphatidylinositol 4,5-bisphosphate 3-kinase catalytic subunit alpha isoform (PIK3CA, Homo sapiens, UniProt P42336, E545K)",binding,competition with immobilised ligand,,61
"Serine/threonine-protein kinase MAK (MAK, Homo sapiens, UniProt P20794)",binding,competition with immobilised ligand,,96
"Myosin light chain kinase, smooth muscle (MYLK, Homo sapiens, UniProt Q15746)",binding,competition with immobilised ligand,,100
"Epidermal growth factor receptor (EGFR, Homo sapiens, UniProt P00533, del752-759)",binding,competition with immobilised ligand,,100
"NT-3 growth factor receptor (NTRK3, Homo sapiens, UniProt Q16288)",binding,competition with immobilised ligand,,83
"Insulin receptor-related protein (INSRR, Homo sapiens, UniProt P14616)",binding,competition with immobilised ligand,,100
"Serine/threonine-protein kinase 32C (STK32C, Homo sapiens, UniProt Q86UX6)",kinase binding,KINOMEscan,DMSO control,100
"Cyclin-dependent kinase 5 (CDK5, Homo sapiens, UniProt Q00535)",binding,competition with immobilised ligand,,100
"Mitogen-activated protein kinase 15 (MAPK15, Homo sapiens, UniProt Q8TD08)",binding,competition with immobilised ligand,,100
"Serine/threonine-protein kinase NLK (NLK, Homo sapiens, UniProt Q9UBE8)",binding,competition with immobilised ligand,,100
"Receptor-type tyrosine-protein kinase FLT3 (FLT3, Homo sapiens, UniProt P36888, D835V)",binding,competition with immobilised ligand,,100
"Serine/threonine-protein kinase Chk2 (CHEK2, Homo sapiens, UniProt O96017)",kinase binding,KINOMEscan,DMSO control,100
"Fibroblast growth factor receptor 3 (FGFR3, Homo sapiens, UniProt P22607)",binding,competition with immobilised ligand,,100
"ALK tyrosine kinase receptor (ALK, Homo sapiens, UniProt Q9UM73, L1196M)",binding,competition with immobilised ligand,,76
"Homeodomain-interacting protein kinase 1 (HIPK1, Homo sapiens, UniProt Q86Z02)",kinase binding,KINOMEscan,DMSO control,77
"Serine/threonine-protein kinase Nek6 (NEK6, Homo sapiens, UniProt Q9HC98)",kinase binding,KINOMEscan,DMSO control,95
"Proto-oncogene tyrosine-protein kinase receptor Ret (RET, Homo sapiens, UniProt P07949, V804M)",binding,competition with immobilised ligand,,98
"Muscle, skeletal receptor tyrosine-protein kinase (MUSK, Homo sapiens, UniProt O15146)",binding,competition with immobilised ligand,,100

# Series 4
# Compound: CN(C1COC1)C(C)(C)/C=C(\C#N)C(=O)N1CCC[C@H]1Cn1nc(-c2ccc(Oc3ccccc3)cc2F)c2c(N)ncnc21
# Effect on: kinase activity
target,concentration,inhibition [%]
"Dual specificity mitogen-activated protein kinase kinase 2 (MAP2K2, Homo sapiens, UniProt P36507)",0.1 µM,2
"TRAF2 and NCK-interacting protein kinase (TNIK, Homo sapiens, UniProt Q9UKE5)",0.1 µM,1
"Tyrosine-protein kinase JAK1 (JAK1, Homo sapiens, UniProt P23458)",0.1 µM,9
"Dual specificity tyrosine-phosphorylation-regulated kinase 2 (DYRK2, Homo sapiens, UniProt Q92630)",0.1 µM,-6
"Rho-associated protein kinase 2 (ROCK2, Homo sapiens, UniProt O75116)",0.1 µM,2
"Dual specificity tyrosine-phosphorylation-regulated kinase 1B (DYRK1B, Homo sapiens, UniProt Q9Y463)",1 µM,-12
"STE20-like serine/threonine-protein kinase (SLK, Homo sapiens, UniProt Q9H2G2)",0.1 µM,5
"Serine/threonine-protein kinase PLK1 (PLK1, Homo sapiens, UniProt P53350)",0.1 µM,10
"Ephrin type-A receptor 5 (EPHA5, Homo sapiens, UniProt P54756)",1 µM,-5
"Fibroblast growth factor receptor 3 (FGFR3, Homo sapiens, UniProt P22607)",0.1 µM,5
"Tyrosine-protein kinase receptor TYRO3 (TYRO3, Homo sapiens, UniProt Q06418)",0.1 µM,2
"Mast/stem cell growth factor receptor Kit (KIT, Homo sapiens, UniProt P10721)",0.1 µM,-9
"Testis-specific serine/threonine-protein kinase 1 (TSSK1B, Homo sapiens, UniProt Q9BXA7)",0.1 µM,4
"Protein kinase C iota type (PRKCI, Homo sapiens, UniProt P41743)",0.1 µM,-3
"MAP/microtubule affinity-regulating kinase 4 (MARK4, Homo sapiens, UniProt Q96L34)",1 µM,2

# Series 5
# Target: E3 ubiquitin-protein ligase NEDD4 (Homo sapiens, UniProt P46934)
# Effect on: enzyme activity
# Action: inhibitor
# Method: TR-FRET
# Concentration: 100 µM
# Construct (P46934 938-1319, limits assumed): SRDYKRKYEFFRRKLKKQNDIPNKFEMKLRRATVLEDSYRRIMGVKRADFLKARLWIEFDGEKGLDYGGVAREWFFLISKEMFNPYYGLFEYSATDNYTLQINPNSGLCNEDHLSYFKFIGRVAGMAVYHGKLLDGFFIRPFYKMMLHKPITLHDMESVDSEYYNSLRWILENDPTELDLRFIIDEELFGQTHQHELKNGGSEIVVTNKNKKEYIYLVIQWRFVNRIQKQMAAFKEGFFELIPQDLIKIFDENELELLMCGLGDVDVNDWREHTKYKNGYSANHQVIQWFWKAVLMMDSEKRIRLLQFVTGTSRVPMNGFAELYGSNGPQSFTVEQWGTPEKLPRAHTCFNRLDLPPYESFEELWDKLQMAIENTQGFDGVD
Structure (SMILES),inhibition
CCOC(=O)/C=C/CNCCCN1c2ccccc2CCc2ccc(Cl)cc21,85.8%
CN(C)C/C=C/C(=O)NCCCN1c2ccccc2CCc2ccc(Cl)cc21,42.3%
CNC(=O)/C=C/CNCCCN1c2ccccc2CCc2ccc(Cl)cc21.Cl,60.5%
CN(C)C(=O)/C=C/CNCCCN1c2ccccc2CCc2ccc(Cl)cc21.Cl,30.7%

# Series 6
# Compound: CCN1/C(=C/C=C2\CCCC(/C=C/C3=[N+](CC)c4ccccc4C3(C)C)=C2NCCCCCCCCN2CCC(Nc3nc4ccccc4n3Cc3ccc(F)cc3)CC2)C(C)(C)c2ccccc21
# Cell line: U-87 MG
# Concentration: concentration not given
# Reference: DMSO
refers to,log2 fold change
TUBA4A mRNA,-1.94
CSF1 mRNA,-3.07
P2RY6 mRNA,-4.17
POP1 mRNA,-0.897
ZBTB42 mRNA,-0.919
TMEM19 mRNA,-1.09
HOXD4 mRNA,-0.958
LPO mRNA,3.22
LOXL4 mRNA,-3.12
TGFA mRNA,-0.917
KIF11 mRNA,-2.08
ANKRD36B mRNA,-1.35
CUEDC1 mRNA,-1.2
DTX3L mRNA,-0.863
PRKG1 mRNA,1.51
TSLP mRNA,2.06

# Series 7
# Compound: C[C@@H]1CN(c2ccc(-c3cc(C(=O)NCCOCCOCCOCCOCCOCCOCCNC(=O)/C=C/c4[nH]cc(C(=O)N[C@@H](CC(N)=O)c5ccc(F)c(Cl)c5)c4-c4ccc(Cl)cc4F)ccc3F)cc2NC(=O)c2ccc(F)cc2C(F)(F)F)C[C@H](C)N1C
# Effect on: thermal unfolding
# Method: differential scanning fluorimetry
# Concentration: 5.5 µM
# Direction: higher = more unfolded
# WDR5: WD repeat-containing protein 5 (WDR5, Homo sapiens, UniProt P61964)
# DCAF1: DDB1- and CUL4-associated factor 1 (DCAF1, Homo sapiens, UniProt Q9Y4B6)
# UniProt Q9Y4B6, sequence (whole entry, looked up): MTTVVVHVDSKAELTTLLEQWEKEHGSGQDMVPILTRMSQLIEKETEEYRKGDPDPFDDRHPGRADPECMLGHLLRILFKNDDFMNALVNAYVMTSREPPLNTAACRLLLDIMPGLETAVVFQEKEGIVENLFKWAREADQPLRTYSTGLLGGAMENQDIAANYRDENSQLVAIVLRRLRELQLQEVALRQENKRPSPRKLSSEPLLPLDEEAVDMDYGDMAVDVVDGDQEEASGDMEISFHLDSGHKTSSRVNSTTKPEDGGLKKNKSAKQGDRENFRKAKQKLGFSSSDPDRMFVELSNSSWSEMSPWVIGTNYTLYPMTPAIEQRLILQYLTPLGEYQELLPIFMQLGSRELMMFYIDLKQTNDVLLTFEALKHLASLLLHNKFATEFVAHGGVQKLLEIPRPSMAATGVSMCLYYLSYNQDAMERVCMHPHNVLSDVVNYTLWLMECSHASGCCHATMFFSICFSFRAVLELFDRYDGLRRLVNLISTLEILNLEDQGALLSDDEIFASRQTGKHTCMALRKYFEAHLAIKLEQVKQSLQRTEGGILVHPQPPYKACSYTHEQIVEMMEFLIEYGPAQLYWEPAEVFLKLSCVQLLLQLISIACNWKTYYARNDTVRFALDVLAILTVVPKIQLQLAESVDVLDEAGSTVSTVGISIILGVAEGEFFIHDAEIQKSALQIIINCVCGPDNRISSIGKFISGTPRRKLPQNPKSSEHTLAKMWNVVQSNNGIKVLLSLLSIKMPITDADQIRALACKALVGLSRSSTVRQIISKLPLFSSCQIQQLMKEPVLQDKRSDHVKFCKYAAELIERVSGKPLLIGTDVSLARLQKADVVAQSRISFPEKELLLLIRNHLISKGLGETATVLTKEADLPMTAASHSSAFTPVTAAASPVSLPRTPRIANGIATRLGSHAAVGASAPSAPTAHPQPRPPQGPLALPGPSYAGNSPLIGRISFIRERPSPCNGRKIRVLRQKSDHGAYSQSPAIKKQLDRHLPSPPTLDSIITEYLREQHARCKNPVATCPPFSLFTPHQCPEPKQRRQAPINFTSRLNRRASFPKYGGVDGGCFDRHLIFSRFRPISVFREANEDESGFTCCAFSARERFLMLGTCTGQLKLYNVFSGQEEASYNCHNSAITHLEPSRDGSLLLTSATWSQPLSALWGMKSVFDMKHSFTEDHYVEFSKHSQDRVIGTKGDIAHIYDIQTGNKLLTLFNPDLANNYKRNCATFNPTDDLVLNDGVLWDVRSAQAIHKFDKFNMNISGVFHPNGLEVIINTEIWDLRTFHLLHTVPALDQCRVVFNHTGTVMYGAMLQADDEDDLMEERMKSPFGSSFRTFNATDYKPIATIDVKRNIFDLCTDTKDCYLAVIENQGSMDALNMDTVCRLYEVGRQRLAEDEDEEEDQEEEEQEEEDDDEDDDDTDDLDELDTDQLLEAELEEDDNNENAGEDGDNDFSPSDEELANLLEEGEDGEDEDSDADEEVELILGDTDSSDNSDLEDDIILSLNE
target,temperature,SYPRO Orange fluorescence [a.u.]
WDR5,41.4 °C,14300
WDR5,35.4 °C,14000
WDR5,73.01 °C,39900
DCAF1,94.61 °C,28900
WDR5,52.81 °C,16600
WDR5,71.01 °C,31300
DCAF1,47.6 °C,16300
DCAF1,76.61 °C,42400
WDR5,86.21 °C,60400
DCAF1,76.81 °C,42300
DCAF1,68.01 °C,50300

# Series 8
# SMILES: Cc1ncsc1-c1ccc(C(CO)NC(=O)C2CC(O)CN2C(=O)C(C(C)C)n2cc(-c3ccc(COc4c(-c5c(C)c(F)cc6[nH]ncc56)c(C5CC5)cc5c(N6CC7CC6CN7)nc(OC6CCOCC6)nc45)cc3)nn2)cc1 (stereo not shown)
# Time: 6 days
cell line,effect on,method,concentration,reference,viability
GP5d,cell growth or viability,ATP luminescence,3 µM,,39% and 36.7% and 33.2% and 25.5%
ASPC1,cell growth or viability,ATP luminescence,1 nM,,104% and 79.3% and 88.6% and 74.5%
LCLC-97TM1,cell growth or viability,ATP luminescence,0.3 µM,,81.9% and 84.6% and 74.7% and 80.9%
AsPC-1,,CellTiter-Glo,10 nM,DMSO,74.3% and 62.9% and 75.8%
SW-403,cell growth or viability,ATP luminescence,3 nM,,83.1% and 109% and 97.6% and 92.1%
PaTu 8902,cell growth or viability,ATP luminescence,3 µM,,38.9% and 35.7% and 42.1% and 37.7%
HCT-116,cell growth or viability,ATP luminescence,1 µM,,13.2% and 10% and 11.9% and 12.5%
GP5d,cell growth or viability,ATP luminescence,3 nM,,76.3% and 80.6% and 72.8% and 77.8%
PK-59,cell growth or viability,ATP luminescence,1 nM,,86.7% and 87.7% and 90.4% and 75.7%
PSN1,cell growth or viability,ATP luminescence,1 nM,,87.3% and 112% and 88.3% and 101%

# Further values, each from its own experiment
# SLC6A19: Sodium-dependent neutral amino acid transporter B(0)AT1 (SLC6A19, Homo sapiens, UniProt Q695T7)
# UniProt Q695T7, sequence (whole entry, looked up): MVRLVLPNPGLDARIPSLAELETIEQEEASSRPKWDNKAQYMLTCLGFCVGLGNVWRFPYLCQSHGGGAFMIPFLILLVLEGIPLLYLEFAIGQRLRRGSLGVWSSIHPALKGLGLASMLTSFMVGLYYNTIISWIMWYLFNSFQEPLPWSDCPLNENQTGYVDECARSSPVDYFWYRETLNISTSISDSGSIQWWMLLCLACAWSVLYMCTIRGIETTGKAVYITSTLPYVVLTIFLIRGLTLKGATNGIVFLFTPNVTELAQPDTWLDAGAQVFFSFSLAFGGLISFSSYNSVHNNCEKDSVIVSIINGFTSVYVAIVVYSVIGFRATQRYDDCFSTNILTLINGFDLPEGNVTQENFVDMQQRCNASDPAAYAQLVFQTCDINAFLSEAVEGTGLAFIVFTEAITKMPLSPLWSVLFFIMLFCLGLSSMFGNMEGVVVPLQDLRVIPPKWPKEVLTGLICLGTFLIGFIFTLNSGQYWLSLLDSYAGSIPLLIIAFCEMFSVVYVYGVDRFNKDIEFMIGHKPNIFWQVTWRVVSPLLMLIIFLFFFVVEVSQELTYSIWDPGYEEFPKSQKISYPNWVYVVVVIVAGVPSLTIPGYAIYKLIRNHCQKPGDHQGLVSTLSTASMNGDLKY
SMILES,target or system,assay,test system,conditions,how to read,quantity,result
CCN1C(=O)C(O)(C(=O)O)Oc2cc(F)ccc21 (stereo not shown),Arabidopsis thaliana,,Col-0,"50 µg/mL, seed germination, single repetition",,hypocotyl length,1.65 cm and 1.67 cm and 1.68 cm and 1.59 cm and 1.6 cm
CCCNC(=O)COc1ccc(I)c(C)c1,SLC6A19,"inhibitor, L-[14C]leucine uptake",CHO-BC cells,"0.01 µM, 6 min, 37 °C, unit not given, with: GPNA 3 mM, JPH203 3 µM",reference: uninhibited cells,remaining transport activity,0.841
O=C(O)C1(O)Oc2cc(Cl)ccc2N(Cc2ccccc2)C1=O (stereo not shown),Arabidopsis thaliana,,Col-0,"50 µg/mL, seed germination, single repetition",,hypocotyl length,1.32 cm and 1.33 cm and 1.31 cm
CC(C)NC(=O)COc1ccc2ccccc2c1,SLC6A19,"inhibitor, FLIPR membrane potential",CHO-BC cells,"10 µM, unit not given",reference: no inhibitor,remaining transport activity,0.298
Cc1nc(C)c(C=[N+]([O-])C(C)(C)C)nc1C,,stereological counting,"MPTP mouse model, substantia nigra",30 mg/kg,,TH-positive neuron count,7810 and 6790 and 8650 and 9020 and 7720
CC(C)NC(=O)COc1ccc(I)cc1,SLC6A19,"inhibitor, FLIPR membrane potential",CHO-BC cells,"0.003 µM, unit not given",reference: no inhibitor,remaining transport activity,1.01
CCCN1C(=O)C(O)(C(=O)O)Oc2cc(F)ccc21 (stereo not shown),Arabidopsis thaliana,,Col-0,"50 µg/mL, seed germination, single repetition",,hypocotyl length,1.28 cm and 1.25 cm and 1.3 cm and 1.27 cm and 1.24 cm
CCNC(=O)COc1ccc(Br)c(C)c1,SLC6A19,"inhibitor, FLIPR membrane potential",CHO-BC cells,"0.03 µM, unit not given",reference: uninhibited cells,remaining transport activity,0.744
Cc1ccc2c(c1)OC(O)(C(=O)O)C(=O)N2Cc1ccccc1 (stereo not shown),Arabidopsis thaliana,,Col-0,"3.125 µg/mL, seed germination, single repetition",,hypocotyl length,2.09 cm and 2.08 cm and 2.1 cm and 2.05 cm
